Assay results collected from several papers.
Protocols differ between the studies behind these lines. Several values in a cell are separate wells, animals, samples, runs or records.
Target: Bone morphogenetic protein receptor type-1A (BMPR1A, Homo sapiens, UniProt P36894)

Structure (SMILES)	assay	test system	setting	how to read	quantity	result
C=CC(=O)N1Cc2nc(-c3cc(-c4cc(Cl)cnc4Cl)c(F)cc3F)n(-c3ccncn3)c2C1	cell-free assay, inhibitor	–	1 µM	–	inhibition	-2.2%
COc1cc(Nc2nccc(-c3cnn4nc(OC)ccc34)n2)cc(C(F)(F)F)c1	binding, competition with immobilised ligand	–	1 µM	–	remaining binding	100%
Cc1cnc2nc1Nc1cccc(c1)COC/C=C/COCc1cc(ccc1OCCN1CCOCC1)N2	binding	–	0.1 µM	–	remaining binding	98%
N[C@H]1CC[C@H](Nc2nccc(-c3cccnc3Oc3ccc(NC(=O)NC4CC4)c4ccccc34)n2)CC1	kinobead competition pulldown	HEK293/HCT116 lysate mixture	10 µM, 1 h, 4 °C	lower = stronger competition	log2 LFQ intensity	21.7 and 19.9 and 19.6
COc1cc(Nc2nc(C)cc(-c3cnn4nc(OC)ccc34)n2)cc(C(F)(F)F)c1	inhibitor	–	1 µM	baseline: control	remaining activity	100%
C=CC(=O)N1CCCC(n2c(=O)c3ncccc3n(Cc3ccc(Oc4ccccc4)cc3)c2=O)C1 (stereo not shown)	cell-free assay, competition with immobilised ligand	–	1 µM	–	remaining binding	90%
COc1c(Cl)cccc1Nc1c(-c2ccncc2C#C[C@@]2(C)CCCN2C(=O)/C=C/CN(C)C)[nH]c2c1C(=O)NCC2	binding, competition with immobilised ligand	–	3 µM	–	remaining binding	85%
CN1CCN(Cc2ccc(-c3ccc(CO[C@H]4CCC[C@@H]4NC(=O)c4cc(-c5cnn(C)c5)cnc4N)cc3)cc2)CC1	enzyme activity, inhibitor	–	0.1 µM	–	inhibition	-6%
CCN1CCN(Cc2ccc(C(=O)Nc3ccc(C)c(NCc4cnc5[nH]ccc5c4OC)c3)cc2C(F)(F)F)CC1	binding, competition with immobilised ligand	–	1 µM	–	remaining binding	100%
CC(C)=CC1OC(C)(C)C2C=C3C(=O)C(Cl)=CC(O)C3C3C(O)C4OC4C(=O)C132 (stereo not shown)	cell-free assay, competition with immobilised ligand	–	10 µM	–	remaining binding	95%
Cc1ccc(-c2c(/C=C(\C#N)C(=O)NC(C)C)n(CCCO)c3ncnc(N)c23)cc1	binding, competition with immobilised ligand	–	1 µM	–	remaining binding	72%
CNC(=O)C1CCN(c2cc(C)c(F)cc2NC(=O)c2ccc(-c3cc(O)ccc3C)c(C)c2)CC1	binding, competition with immobilised ligand	–	1 µM	–	remaining binding	100%
C=CC(=O)N1CCc2ccc(-n3c(=O)ccc4cnc5ccc(-c6cnn(C)c6)cc5c43)cc21	KINOMEscan	–	1 µM	baseline: DMSO control	remaining binding	60%
Nc1ncc(-c2cc(-c3cnn(CC(F)(F)F)c3)ncc2F)nc1C(=O)NC1CNCC(F)C1 (stereo not shown)	enzyme activity	–	1 µM	baseline: DMSO control	remaining activity	112%
Nc1ncc2c(n1)-c1c([nH]c3ccc(C4=CCOCC4)cc13)CCC2	binding, competition with immobilised ligand	–	1 µM	–	remaining binding	70%
CNC1C[S+]2CC[S+]3CC[S+](C1)[Ru-4]321([N]=C=S)[n]2c3ccc(OC)cc3c3c4c(c5cc(F)c[n+]1c5c32)C(=O)NC4=O (stereo not shown)	KinomeScan	–	0.1 µM	baseline: untreated	remaining binding	90%

Some of these lines once more:
Structure (SMILES)	assay	test system	setting	how to read	quantity	result
C=CC(=O)N1CCc2ccc(-n3c(=O)ccc4cnc5ccc(-c6cnn(C)c6)cc5c43)cc21	KINOMEscan	–	1 µM	baseline: DMSO control	remaining binding	60%
